Earlier results, collected from citations in different studies.
Each line is one published result; not all experiments were run side by side. Several values in a cell are separate wells, animals, samples, runs or records. ± marks the error that the study gave.

SMILES	tested on	test	system	conditions	measurement	result
Cc1onc(-c2ccc(F)cc2)c1C(=O)N[C@H](C(=O)Nc1cccc(C(N)=O)c1)c1ccc(OCc2ccccc2)cc1	HeLa	cytotoxicity	–	–	CC50	> 50 µM
CCn1c(C)c(CC(=O)N[C@@H](Cc2ccccc2)C(=O)N(C)c2cccc(Cl)c2)c2ccccc21	TZM-GFP	–	–	–	CC50	16 ± 6 µM
CCCCCC(=O)N[C@@H](Cc1ccccc1)C(=O)N[C@@H](CCCC)C(=O)N[C@@H](CC(C)C)C(=O)[C@@]1(C)CO1	HepG2 cells	cell viability	–	–	CC50	0.022 ± 0.008 µM
Cc1c(CC(=O)N[C@@H](Cc2ccccc2)C(=O)N(C)c2ccc(Cl)cc2)c2ccccc2n1C(C)C	TZM-GFP	–	–	–	CC50	14 ± 2 µM
CCOC(=O)C(c1cc(Cl)c2cccnc2c1O)c1c[nH]c2ccccc12 (stereo not shown)	COLO 205	cell viability	–	–	IC50	4.88 µM
CCCCCC(=O)N[C@H](C(=O)N[C@@H](CCCC)C(=O)N[C@@H](CC(C)C)C(=O)[C@@]1(C)CO1)C(C)C	HepG2 cells	cell viability	–	–	CC50	0.134 ± 0.087 µM
Cc1ccc(N(C)C(=O)[C@H](Cc2ccccc2)NC(=O)Cc2c[nH]c3ccc(O)cc23)cc1	TZM-GFP	–	–	–	CC50	> 100 µM
Oc1c(Cc2c[nH]c3ccccc23)cc(Cl)c2cccnc12	COLO 205	cell viability	–	–	IC50	13.1 µM
Cc1[nH]c2ccccc2c1CC(=O)N[C@@H](Cc1ccccc1)C(=O)N(C)c1ccccc1	TZM-GFP	–	–	–	CC50	76 ± 9 µM
CC1CCN(C(=O)c2cccc(NC(=O)Nc3ccc(Cl)cc3)c2)CC1	HepG2	–	–	100 µM	viability	84.2 ± 15.3%
COC1=CC(c2ccc[nH]2)=NC1=CNC12CC3CC(CC(C3)C1)C2	HepG2	cytotoxicity	–	–	IC50	3.3 µM
c1ccc2c(c1)CCNC2c1c[nH]c2cccnc12 (stereo not shown)	COLO 320 ABCB1-resistant colon	cytotoxicity	–	–	IC50	> 100 µM
Cc1c(CC(=O)N[C@@H](Cc2ccccc2)C(=O)N(C)c2ccccc2)c2ccccc2n1C(C)C	TZM-GFP	–	–	–	CC50	16 ± 1 µM
CCOC(=O)C(c1cc(Cl)c2cccnc2c1O)c1c[nH]c2ncccc12 (stereo not shown)	COLO 205	cytotoxicity	–	–	IC50	8.84 µM and 7.42 µM and 8.05 µM
CCCCCC(=O)N[C@@H](Cc1ccc(NC(=O)OC(C)(C)C)cc1)C(=O)N[C@@H](CCCC)C(=O)N[C@@H](Cc1ccccc1)C(=O)[C@@]1(C)CO1	HepG2 cells	cell viability	–	–	CC50	0.478 ± 0.126 µM
CCn1c(C)c(CC(=O)N[C@@H](Cc2ccccc2)C(=O)N(C)c2ccc(F)cc2)c2ccccc21	TZM-GFP	–	–	–	CC50	19 ± 2.5 µM
COc1ccc(Nc2nc(Nc3ccc(OCC[18F])cc3)ncc2Br)cc1	–	–	S180 tumour-bearing mice, muscle	intravenous, 60 min	tissue uptake	1.97 ± 0.25 %ID/g
Oc1c(Cc2c[nH]c3ncccc23)cc(Cl)c2cccnc12	COLO 205	cytotoxicity	–	–	IC50	40.4 µM and 39.4 µM and 36.5 µM
CCCCCC(=O)N[C@@H](Cc1ccc(N)cc1)C(=O)N[C@@H](CCCC)C(=O)N[C@@H](Cc1ccccc1)C(=O)[C@@]1(C)CO1	HepG2 cells	cell viability	–	–	CC50	3.41 ± 2.31 µM
CCOC(=O)C(c1ccc2ccccc2c1O)c1c[nH]c2ccccc12 (stereo not shown)	COLO 320 ABCB1-overexpressing	cell viability	–	–	IC50	53.6 µM
CCCCCC(=O)N[C@@H](Cc1ccc(N)cc1)C(=O)N[C@@H](CCCC)C(=O)N[C@@H](CC(C)C)C(=O)[C@@]1(C)CO1	HepG2 cells	cell viability	–	–	CC50	0.006 ± 0.005 µM
Oc1c(Br)cc(Br)c2nc3cc(Cl)ccc3nc12	human red blood cells	–	–	200 µM	hemolysis	≤ 1%
COC1=CC(c2ccc[nH]2)=NC1=CNC(C)(C)C	HepG2	cytotoxicity	–	–	IC50	19.1 µM
Oc1c(C(c2ccccc2)c2c[nH]c3ccccc23)cc(Cl)c2cccnc12 (stereo not shown)	COLO 320 ABCB1-resistant colon	cytotoxicity	–	–	IC50	2.78 µM and 2.55 µM and 2.84 µM
O=C1NC(=O)/C(=C/c2ccc3ncnc(N4CCC(F)CC4)c3n2)S1	Caco-2	–	–	–	efflux ratio	1.5 to 1.9

Some of these lines once more:
SMILES	tested on	test	system	conditions	measurement	result
COc1ccc(Nc2nc(Nc3ccc(OCC[18F])cc3)ncc2Br)cc1	–	–	S180 tumour-bearing mice, muscle	intravenous, 60 min	tissue uptake	1.97 ± 0.25 %ID/g
Oc1c(Cc2c[nH]c3ncccc23)cc(Cl)c2cccnc12	COLO 205	cytotoxicity	–	–	IC50	40.4 µM and 39.4 µM and 36.5 µM
